# Measured values collected from several papers.
# A part holds a random share of what one study measured. Several values in a cell are separate wells, animals, samples, runs or records.
# Chain of UniProt P07949 (whole entry, unmodified, looked up): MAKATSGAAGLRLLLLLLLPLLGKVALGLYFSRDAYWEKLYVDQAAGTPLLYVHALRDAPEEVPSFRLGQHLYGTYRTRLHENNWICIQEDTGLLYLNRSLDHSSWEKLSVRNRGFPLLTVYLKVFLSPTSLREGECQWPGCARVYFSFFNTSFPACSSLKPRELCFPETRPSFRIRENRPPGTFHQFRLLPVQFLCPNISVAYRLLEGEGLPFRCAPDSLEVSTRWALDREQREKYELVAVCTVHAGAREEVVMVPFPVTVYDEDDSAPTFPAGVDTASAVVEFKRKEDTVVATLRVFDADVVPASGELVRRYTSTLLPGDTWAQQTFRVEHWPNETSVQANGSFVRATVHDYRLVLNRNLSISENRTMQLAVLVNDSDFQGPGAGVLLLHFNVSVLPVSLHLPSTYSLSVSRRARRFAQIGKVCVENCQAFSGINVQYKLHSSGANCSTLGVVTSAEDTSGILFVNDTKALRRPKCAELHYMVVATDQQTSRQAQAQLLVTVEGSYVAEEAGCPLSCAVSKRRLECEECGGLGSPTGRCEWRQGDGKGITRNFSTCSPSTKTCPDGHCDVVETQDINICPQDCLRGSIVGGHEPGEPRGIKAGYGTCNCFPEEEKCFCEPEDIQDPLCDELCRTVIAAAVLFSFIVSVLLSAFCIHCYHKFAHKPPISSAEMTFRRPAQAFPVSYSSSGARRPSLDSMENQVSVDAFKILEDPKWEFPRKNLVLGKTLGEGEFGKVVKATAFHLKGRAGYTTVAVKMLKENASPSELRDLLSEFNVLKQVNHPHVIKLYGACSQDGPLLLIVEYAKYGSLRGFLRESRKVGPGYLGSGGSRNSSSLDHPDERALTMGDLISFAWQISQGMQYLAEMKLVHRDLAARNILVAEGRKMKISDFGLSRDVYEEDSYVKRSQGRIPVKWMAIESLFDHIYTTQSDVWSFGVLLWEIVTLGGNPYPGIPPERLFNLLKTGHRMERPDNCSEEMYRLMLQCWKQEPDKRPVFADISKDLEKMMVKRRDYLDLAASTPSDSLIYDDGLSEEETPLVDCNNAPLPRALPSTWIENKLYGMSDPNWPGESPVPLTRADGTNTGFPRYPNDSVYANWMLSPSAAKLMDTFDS
# Chain of UniProt O95747 (whole entry, looked up): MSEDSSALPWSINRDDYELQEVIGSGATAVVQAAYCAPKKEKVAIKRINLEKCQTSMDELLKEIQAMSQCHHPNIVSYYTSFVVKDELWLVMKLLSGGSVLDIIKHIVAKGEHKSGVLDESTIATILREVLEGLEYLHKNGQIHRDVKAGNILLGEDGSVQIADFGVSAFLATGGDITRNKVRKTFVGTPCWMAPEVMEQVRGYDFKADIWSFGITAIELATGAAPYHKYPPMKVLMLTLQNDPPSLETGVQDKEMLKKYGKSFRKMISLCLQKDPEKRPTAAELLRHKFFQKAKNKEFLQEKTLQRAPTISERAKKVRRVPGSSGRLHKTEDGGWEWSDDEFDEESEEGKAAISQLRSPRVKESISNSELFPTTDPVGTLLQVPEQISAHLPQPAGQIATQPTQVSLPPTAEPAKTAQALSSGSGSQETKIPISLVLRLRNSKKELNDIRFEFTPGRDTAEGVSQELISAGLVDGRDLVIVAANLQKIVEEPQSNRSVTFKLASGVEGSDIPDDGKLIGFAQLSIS
# Chain of UniProt P08922 (whole entry, looked up): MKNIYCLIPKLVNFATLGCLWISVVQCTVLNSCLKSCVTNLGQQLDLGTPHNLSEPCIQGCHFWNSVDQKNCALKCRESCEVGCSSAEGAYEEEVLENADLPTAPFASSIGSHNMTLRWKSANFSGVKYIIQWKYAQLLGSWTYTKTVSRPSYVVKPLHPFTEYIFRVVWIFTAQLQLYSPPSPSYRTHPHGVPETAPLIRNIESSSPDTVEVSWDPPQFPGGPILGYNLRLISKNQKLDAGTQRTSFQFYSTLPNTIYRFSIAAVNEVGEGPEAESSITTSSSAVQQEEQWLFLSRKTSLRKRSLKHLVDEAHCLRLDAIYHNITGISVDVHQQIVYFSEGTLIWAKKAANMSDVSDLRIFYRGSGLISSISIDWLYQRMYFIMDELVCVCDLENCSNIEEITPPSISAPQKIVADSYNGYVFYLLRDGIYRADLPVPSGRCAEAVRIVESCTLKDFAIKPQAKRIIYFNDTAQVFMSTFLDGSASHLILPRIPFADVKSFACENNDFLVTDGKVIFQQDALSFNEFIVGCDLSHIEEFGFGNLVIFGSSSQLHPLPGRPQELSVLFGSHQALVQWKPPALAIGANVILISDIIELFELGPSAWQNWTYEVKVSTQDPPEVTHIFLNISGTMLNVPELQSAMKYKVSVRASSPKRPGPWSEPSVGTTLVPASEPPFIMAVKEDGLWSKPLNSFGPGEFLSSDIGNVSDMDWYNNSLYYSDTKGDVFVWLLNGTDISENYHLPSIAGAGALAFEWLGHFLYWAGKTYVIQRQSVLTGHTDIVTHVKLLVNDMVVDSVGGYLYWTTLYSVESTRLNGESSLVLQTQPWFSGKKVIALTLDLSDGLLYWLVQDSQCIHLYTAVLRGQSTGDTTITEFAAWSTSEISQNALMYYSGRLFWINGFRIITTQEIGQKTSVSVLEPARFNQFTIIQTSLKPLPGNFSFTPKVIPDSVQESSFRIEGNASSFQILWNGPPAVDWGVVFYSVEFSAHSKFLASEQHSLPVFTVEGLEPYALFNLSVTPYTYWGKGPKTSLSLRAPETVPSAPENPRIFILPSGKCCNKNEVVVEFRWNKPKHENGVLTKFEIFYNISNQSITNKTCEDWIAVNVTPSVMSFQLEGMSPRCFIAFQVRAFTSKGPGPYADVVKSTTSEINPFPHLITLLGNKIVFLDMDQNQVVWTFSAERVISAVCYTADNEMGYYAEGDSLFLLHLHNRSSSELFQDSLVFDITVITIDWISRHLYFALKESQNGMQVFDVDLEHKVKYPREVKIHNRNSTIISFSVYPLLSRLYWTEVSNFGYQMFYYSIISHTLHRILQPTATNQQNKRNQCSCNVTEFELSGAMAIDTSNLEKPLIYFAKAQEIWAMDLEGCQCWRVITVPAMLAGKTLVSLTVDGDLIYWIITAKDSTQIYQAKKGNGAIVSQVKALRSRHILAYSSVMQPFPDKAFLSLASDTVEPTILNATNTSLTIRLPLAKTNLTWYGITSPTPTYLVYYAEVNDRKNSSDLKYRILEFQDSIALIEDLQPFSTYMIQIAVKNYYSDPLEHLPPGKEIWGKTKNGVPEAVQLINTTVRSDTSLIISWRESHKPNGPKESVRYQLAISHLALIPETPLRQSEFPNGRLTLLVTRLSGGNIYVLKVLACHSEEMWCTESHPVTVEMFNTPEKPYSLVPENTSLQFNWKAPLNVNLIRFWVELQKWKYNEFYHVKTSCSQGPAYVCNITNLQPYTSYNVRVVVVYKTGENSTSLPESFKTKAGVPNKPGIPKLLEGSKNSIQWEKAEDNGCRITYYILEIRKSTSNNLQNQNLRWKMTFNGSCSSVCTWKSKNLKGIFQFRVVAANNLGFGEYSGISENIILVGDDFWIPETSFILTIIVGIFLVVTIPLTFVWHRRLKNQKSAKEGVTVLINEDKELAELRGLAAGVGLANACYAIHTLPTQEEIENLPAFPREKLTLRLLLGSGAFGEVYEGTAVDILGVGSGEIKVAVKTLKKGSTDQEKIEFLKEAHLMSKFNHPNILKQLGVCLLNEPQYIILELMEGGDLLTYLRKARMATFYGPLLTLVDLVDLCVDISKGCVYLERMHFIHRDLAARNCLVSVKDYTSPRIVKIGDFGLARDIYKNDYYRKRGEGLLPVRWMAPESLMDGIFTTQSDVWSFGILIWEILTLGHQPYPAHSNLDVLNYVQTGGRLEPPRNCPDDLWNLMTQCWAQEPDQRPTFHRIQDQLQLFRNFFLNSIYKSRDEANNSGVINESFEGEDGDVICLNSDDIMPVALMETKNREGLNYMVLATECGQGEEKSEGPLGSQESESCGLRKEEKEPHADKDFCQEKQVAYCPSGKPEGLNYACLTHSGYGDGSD
# Chain of UniProt Q16816 (whole entry, looked up): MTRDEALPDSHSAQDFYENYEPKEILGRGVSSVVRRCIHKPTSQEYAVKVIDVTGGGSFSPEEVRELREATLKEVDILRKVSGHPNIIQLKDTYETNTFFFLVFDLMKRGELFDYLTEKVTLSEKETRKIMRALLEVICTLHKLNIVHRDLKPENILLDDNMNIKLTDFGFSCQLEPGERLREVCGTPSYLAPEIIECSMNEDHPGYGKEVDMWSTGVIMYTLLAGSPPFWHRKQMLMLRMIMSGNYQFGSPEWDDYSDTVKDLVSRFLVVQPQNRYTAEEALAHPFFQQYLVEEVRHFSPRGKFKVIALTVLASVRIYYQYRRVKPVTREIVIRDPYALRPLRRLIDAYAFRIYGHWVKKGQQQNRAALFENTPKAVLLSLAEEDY

# Block 1
# SMILES: CC(C)n1cnc(-c2ccc(F)cc2)c1-c1ncc(C(=O)Nc2ccc(N3CCN(C)CC3)cc2)[nH]1
# Method: phase 2a clinical trial
# Host: patients with idiopathic pulmonary fibrosis
conditions,patients with serious adverse events [%]
"30 mg once daily, grade ≥3, without standard of care",0
"60 mg once daily, grade ≥3, added: standard of care",54.5
"30 mg once daily, grade ≥3, added: standard of care",18.2

# Block 2
# SMILES: NS(=O)(=O)c1cc(NC(=O)C2(c3ccccc3Cl)CC2)ccc1Oc1cccc(Cl)c1
# Observed: cell-free assay
# Method: competition with immobilised ligand
# Tested at: 1 µM
target,remaining binding [%]
"G protein-coupled receptor kinase 4 (GRK4, Homo sapiens, UniProt P32298)",100
"Serine/threonine-protein kinase PAK 3 (PAK3, Homo sapiens, UniProt O75914)",64
"Phosphatidylinositol 4,5-bisphosphate 3-kinase catalytic subunit gamma isoform (PIK3CG, Homo sapiens, UniProt P48736)",100
"Serine/threonine-protein kinase MARK2 (MARK2, Homo sapiens, UniProt Q7KZI7)",100
"Serine/threonine-protein kinase OSR1 (OXSR1, Homo sapiens, UniProt O95747)",100
"Proto-oncogene tyrosine-protein kinase receptor Ret (RET, Homo sapiens, UniProt P07949, V804L)",70
"Phosphorylase b kinase gamma catalytic chain, skeletal muscle/heart isoform (PHKG1, Homo sapiens, UniProt Q16816)",89
"Proto-oncogene tyrosine-protein kinase ROS (ROS1, Homo sapiens, UniProt P08922)",82
"Proto-oncogene tyrosine-protein kinase receptor Ret (RET, Homo sapiens, UniProt P07949)",84
"Ribosomal protein S6 kinase alpha-1, N-terminal kinase domain (RPS6KA1, Homo sapiens, UniProt Q15418)",98
"Ephrin type-A receptor 3 (EPHA3, Homo sapiens, UniProt P29320)",100

# Block 3
# Target: Dual specificity tyrosine-phosphorylation-regulated kinase 2 (DYRK2, Homo sapiens, UniProt Q92630)
# Chain of UniProt Q92630 (whole entry, looked up): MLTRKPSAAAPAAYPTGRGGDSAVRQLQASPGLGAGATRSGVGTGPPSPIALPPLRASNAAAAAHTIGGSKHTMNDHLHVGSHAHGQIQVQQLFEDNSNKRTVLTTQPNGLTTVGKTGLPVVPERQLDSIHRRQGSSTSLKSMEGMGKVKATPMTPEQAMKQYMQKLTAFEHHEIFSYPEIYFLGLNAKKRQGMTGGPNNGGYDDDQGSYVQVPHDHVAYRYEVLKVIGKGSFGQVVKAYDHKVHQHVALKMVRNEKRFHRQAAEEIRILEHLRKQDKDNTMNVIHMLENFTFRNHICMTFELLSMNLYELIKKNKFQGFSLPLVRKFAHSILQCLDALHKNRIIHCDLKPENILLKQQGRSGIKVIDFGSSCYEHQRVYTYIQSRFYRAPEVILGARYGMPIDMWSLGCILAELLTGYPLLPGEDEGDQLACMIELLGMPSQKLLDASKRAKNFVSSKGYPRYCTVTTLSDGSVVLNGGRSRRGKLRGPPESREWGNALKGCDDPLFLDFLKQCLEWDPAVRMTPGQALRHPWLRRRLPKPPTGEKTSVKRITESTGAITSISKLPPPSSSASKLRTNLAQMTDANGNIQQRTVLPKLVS
# Observed: enzyme activity
# Mode: inhibitor
# Tested at: 0.5 µM
# Baseline: control
Compound,remaining activity [%]
Cn1sc(=O)n(Cc2ccccc2)c1=O,104
C#Cc1cccc(Nc2ncnc3cc(OCCOC)c(OCCOC)cc23)c1,85
O=C(Nc1cccc(Nc2cc(Nc3cccc(C(F)(F)F)c3)ncn2)c1)C1CC1,99.8
CC(C)[C@H](CO)Nc1nc(Nc2cc(N)cc(Cl)c2)c2ncn(C(C)C)c2n1,93.2
Nc1[nH]nc2nc3ccccc3nc12,91.6
Cc1ccc(Nc2nccc(N(C)c3ccc4c(C)n(C)nc4c3)n2)cc1S(N)(=O)=O,98.8
CO[C@H]1C[C@@H]2CC[C@@H](C)[C@@](O)(O2)C(=O)C(=O)N2CCCC[C@H]2C(=O)O[C@H]([C@H](C)C[C@@H]2CC[C@@H](O)[C@H](OC)C2)CC(=O)[C@H](C)/C=C(\C)[C@@H](O)[C@@H](OC)C(=O)[C@H](C)C[C@H](C)/C=C/C=C/C=C/1C,100
Cc1nc(-c2ccccc2)c(-c2ccncc2)o1,98.6
COc1ccc(C(=O)Nc2sc3c(c2C(N)=O)CCCC3)cc1OC,92
CNC(=O)c1cc(Oc2ccc(NC(=O)Nc3ccc(Cl)c(C(F)(F)F)c3)cc2)ccn1,98.9
COc1ccc(CNC(=O)Nc2ncc([N+](=O)[O-])s2)cc1,103
O=C(CCCc1ccc(-c2ccccc2F)cc1)Nc1ccc(O)cc1,91.8
NCCNc1ncc(C(N)=O)c(Nc2cccc(C(F)(F)F)c2)n1,91.2
OCC(O)CCON=C1C(c2c(O)[nH]c3ccccc23)=Nc2ccccc21 (centres unmarked),61.4
Nc1ccc2ncnc(NCCc3ccc(Oc4ccccc4)cc3)c2c1,89.6
COc1ccc(OC)c2c(=S)c3ccccc3[nH]c12,96.8

# Block 4
# SMILES: C=C(F)C(=O)N1CCN(c2nc(OC[C@@H]3CCCN3C)nc3c2CCN(c2cccc4cccc(Cl)c24)C3)C[C@@H]1CC#N
# Target: GTPase HRas (HRAS, Homo sapiens, UniProt P01112)
# Observed: binding
# Mode: competitor
# Method: NanoBRET
# Cell line: HEK293
conditions,normalized BRET
2.44 nM,89.8%
3.05 nM,101% and 108%
27.4 nM,93.3% and 97.9%
1.02 nM,99.2% and 95.8%
611 pM,92.2%

# Excerpt of the above (block 1):
conditions,patients with serious adverse events [%]
"30 mg once daily, grade ≥3, without standard of care",0
"60 mg once daily, grade ≥3, added: standard of care",54.5
"30 mg once daily, grade ≥3, added: standard of care",18.2
